Results collected from several papers.
Compare with care: the assays were run in different laboratories. “And” joins repeats or separate records; there may be more than shown. ± marks the error that the study gave.

Compound = CN1CCN(c2cccc3c2CCN(C(=O)/C=C/c2c(-n4cnnn4)ccc(Cl)c2F)[C@@H]3C(=O)Nc2ccc(C(=O)O)cc2)C(=O)C1; test system = healthy human subjects; setting = intravenous infusion, 4 mg/h, 2 h; endpoint = subjects with any adverse event; value = 33.3%
Compound = CC[C@H](C)[C@H](NC(=O)[C@H](CO)NC(=O)[C@H](CCCNC(=N)N)NC(C)=O)C(=O)N[C@H]1CSSC[C@@H](C(=O)N[C@H](C(N)=O)[C@@H](C)O)NC(=O)[C@H](CCCNC(=N)N)NC(=O)[C@H](Cc2c[nH]cn2)NC(=O)[C@H](C)NC(=O)CNC(=O)[C@H](Cc2c[nH]c3ccccc23)NC(=O)[C@H](CC(=O)O)NC(=O)[C@H](CCC(N)=O)NC(=O)[C@H](Cc2cccc3ccccc23)NC(=O)[C@H](C(C)C)NC1=O; test = isocratic RP-HPLC, C18; test system = 32% acetonitrile, phosphate pH 7.4, 1% TFA; setting = 25 °C; endpoint = log retention factor; value = 0.068
Compound = N=C(N)NS(=O)(=O)c1ccc(N/C=C2\C(=O)Nc3ccccc32)cc1; test system = octanol/buffer; setting = 67 µM, pH 7.4; endpoint = logD; value = 1.71
Compound = O=C(O)CC(O)(CC(=O)O)C(=O)O; test system = Wistar rat; setting = 1000 mg/kg, week four; endpoint = lowest mean body weight; value = 109 g
Compound = Cc1cc(-c2nccc3c2ccn3CC(=O)Nc2ccc(-c3cnccn3)cn2)ccn1; test system = healthy human volunteers; setting = oral, 20 mg once daily, 14 days, multiple ascending dose; endpoint = skin disorder TEAEs; value = 0%
Compound = N#Cc1ccc2c(c1)[C@H]1CCCN(C(=O)c3ccc4[nH]cnc4c3)[C@H]1C2; test system = human; setting = 10 mg, day 15; endpoint = median ACTH level; value = 4.2 pmol/L
Compound = CO[C@@H]1[C@H](OC(=O)N2CC(CCN3CCOCC3)C2)CC[C@]2(CO2)[C@H]1[C@@]1(C)O[C@@H]1CC=C(C)C; test system = humans; setting = subcutaneous, 0.2 mg twice weekly for 4 weeks, day 28; how to read = baseline: baseline; endpoint = diastolic blood pressure; value = -3.4 ± 6.4 mmHg
Compound = C/C=C/C[C@@H](C)C(=O)[C@H]1C(=O)N[C@@H](C(C)C)C(=O)N(C)CC(=O)N(C)[C@@H](CC(C)C)C(=O)N[C@@H](C(C)C)C(=O)N(C)[C@@H](CC(C)C)C(=O)N[C@@H](C)C(=O)N[C@H](C)C(=O)N(C)[C@@H](CC(C)C)C(=O)N(C)[C@@H](CC(C)C)C(=O)N(C)[C@@H](C(C)C)C(=O)N1C; test system = Sprague Dawley rat, plasma; setting = intravenous infusion, 2.67 mg/h/kg, 4 h, 4.5 h constant infusion; endpoint = free plasma concentration; value = 976 ng/mL
Compound = [O]=[Co].[O]=[Co][O][Co]=[O]; test system = rat, female, faeces, 24-h collection; setting = oral gavage, single, 300 mg/kg (220 mg Co/kg), day 3, vehicle 0.5% HPMC; how to read = baseline: vehicle control subtracted; endpoint = cobalt concentration; value = 6.59 µg/g
Compound = CCOC(=O)N1C[C@@H](C2CCCCC2)N[C@@H](c2ccc(C(=O)OC)cc2)C1; test = shake-flask, 1-octanol/buffer; setting = pH 7.4; endpoint = logD; value = > 4.7
Compound = O=C(O)CN1CCCN2CCN(Cc3ccccc3)CCCN(CC1)Cc1cccc(n1)C2; test system = 64Cu complex; setting = 48 h, 70 °C, together with: DOTA excess; endpoint = intact complex; value = 95%
Compound = CC(C)(C(=O)N1CCOc2c(C#N)cncc2C1)C(F)F; test = measured: Nausea; test system = human; setting = oral, 40 mg, CSF pharmacokinetic cohort; endpoint = subjects with adverse event; value = 16.7%
Compound = Cc1c(NS(=O)(=O)c2cccc3nonc23)c(=O)n(-c2ccccc2)n1C; test system = octanol/buffer; setting = pH 7.4; endpoint = logD; value = 0.99
Compound = CCC(=O)N(CCC(c1ccc2c(c1)OCO2)c1ccccc1OC)Cc1ccccc1 (centres unmarked); test system = female athymic nude mouse, blood; setting = i.p., 60 mg/kg twice daily, 14 days, group mean; endpoint = CREA; value = 0.193 mg/dL
Compound = O=C(Nc1ccc(OC(F)(F)Cl)cc1)c1cnc(N2CC[C@@H](O)C2)c(-c2ccn[nH]2)c1; test = per treatment cycle, measured: amylase increase; test system = human patients; setting = oral, dose not given, 28 day cycle; endpoint = grade ≥3 event rate; value = 0.1%
Compound = COc1ccc(-n2nc(C(N)=O)c3c2C(=O)N(c2ccc(N4CCCCC4=O)cc2)CC3)cc1; test system = healthy mixed-breed dogs, plasma; setting = oral, 0.5 mg/kg every 12 h for 7 days, after last dose; endpoint = terminal half-life; value = 7.6 ± 0.7 h
Compound = Cc1ccc([C@@H]2O[C@H](CO)[C@@H](O)[C@H](O)[C@H]2O)cc1Cc1ccc(-c2ccc(F)cc2)s1; test system = human haemodialysis patients, blood; setting = 100 mg or 300 mg, safety monitoring; endpoint = beta-hydroxybutyrate level; value = < 0.42 mmol/L
Compound = CO[C@H]1C[C@@H]2CC[C@@H](C)[C@@](O)(O2)C(=O)C(=O)N2CCCC[C@H]2C(=O)O[C@H]([C@H](C)C[C@@H]2CC[C@@H](O)[C@H](OC)C2)CC(=O)[C@H](C)/C=C(\C)[C@@H](O)[C@@H](OC)C(=O)[C@H](C)C[C@H](C)/C=C/C=C/C=C/1C; test system = healthy adult horses; setting = intravenous, 0.06 mg/kg, 6 h; endpoint = heart rate; value = 32 ± 2.8 beats/min
Compound = CC(C)c1nc(CN(C)C(=O)N[C@@H](CCN2CCOCC2)C(=O)N[C@H](CC[C@H](Cc2ccccc2)NC(=O)OCc2cncs2)Cc2ccccc2)cs1; test system = human; setting = oral, 150 mg, drug interaction trial; endpoint = grade 3-4 TEAE; value = 0%
Compound = Cc1ccc(C)c(N2C(=O)c3ccc(-c4nc(-c5ccc6[nH]nnc6c5)no4)cc3C2=O)c1; test = dynamic light scattering; test system = buffer; setting = 20 µM; endpoint = hydrodynamic radius; value = 2.64 nm
Compound = COc1cc(N2CCC3(CCN(C)CC3)CC2)ccc1Nc1ncc(Cl)c(Nc2ccccc2P(C)(C)=O)n1; test = population PK model; test system = human; setting = oral, final model without outliers; endpoint = V1/F; value = 347 L
Compound = Cl.[2H]C([2H])([2H])CC(=O)c1cnc(NC(=O)C2CC2)cc1Nc1cccc(-c2ncn(C([2H])([2H])[2H])n2)c1OC; test = geometric mean; test system = human; setting = 10 mg single dose, fasted, liquid; endpoint = CL/F; value = 12.3 L/h
Compound = CCN1/C(=C/C(C)=O)Sc2ccc(F)cc21; test system = cynomolgus monkey; setting = oral, 100 mg/kg, 2 h post-dose; how to read = baseline: pre-dose; endpoint = diastolic blood pressure change; value = 96.1 ± 3.3%
Compound = Cc1ccc(Sc2ccccc2N2CCNCC2)c(C)c1; test = measured: Thirst; test system = healthy adult women; setting = oral, 5 mg daily, 12 days; endpoint = participants with TEAE; value = 0%
Compound = O=C(Nc1ccc(Cl)c(Cl)c1)Nc1ccc(Cl)cc1O; test = reverse phase LC, C18; test system = acetonitrile gradient, 0.1% formic acid; setting = converted from retention time; how to read = baseline: Valko CHI standards; endpoint = chromatographic hydrophobicity index; value = 118
Compound = O=C(COc1ccc(Cl)cc1)NC12CC(c3nnc([C@H]4C[C@@H](OC(F)(F)F)C4)o3)(C1)C2; test system = humans; setting = 200 mg once daily; endpoint = procedural pain; value = 11.1%
Compound = NC[C@H](NC(=O)c1ccc(C#Cc2ccccc2)cc1)C(=O)NO; test system = octanol/buffer; setting = pH 7.4; endpoint = logD; value = 4.38
Compound = CN(C(=O)n1cnc(-c2cccnc2)c1)[C@H]1CC[C@H](O)CC1; test system = Wistar rat, pons; setting = oral, 10 mg/kg/day of BIA 10-2474, 4 h, repeated 5 days; endpoint = concentration; value = 38.1 ± 6.6 ng/g
Compound = C=CC(=O)Nc1cc(Nc2nccc(-c3cn(C)c4ccccc34)n2)c(OC)cc1N(C)CCN(C)C; test = UHPLC-MS/MS; test system = human, plasma; setting = oral, 80 mg once daily; endpoint = trough concentration; value = 229 ng/mL and 212 ng/mL and 185 ng/mL and 198 ng/mL and 205 ng/mL and 201 ng/mL and 167 ng/mL and 252 ng/mL
Compound = C[C@H](NC(=O)[C@H](CCC(N)=O)NC(=O)[C@H](C)NC(=O)[C@H](CCCNC(=N)N)NC(=O)[C@H](CCC(N)=O)NC(=O)[C@H](C)NC(=O)[C@H](CCCNC(=N)N)NC(=O)[C@H](CCC(N)=O)NC(=O)[C@H](C)NC(=O)[C@H](CCC(N)=O)NC(=O)[C@H](CCCNC(=N)N)NC(=O)[C@H](C)NC(=O)[C@H](CCC(N)=O)NC(=O)[C@H](CCCNC(=N)N)NC(=O)[C@H](C)NC(=O)[C@H](CCC(N)=O)NC(=O)[C@H](C)NC(=O)[C@H](CCCNC(=N)N)NC(=O)[C@H](CCC(N)=O)NC(=O)[C@H](C)NC(=O)[C@H](CCCNC(=N)N)NC(=O)[C@H](CO)NC(=O)[C@H](Cc1ccc(O)c(I)c1)NC(=O)CNC(=O)CNC(=O)CN)C(=O)N[C@@H](CCCNC(=N)N)C(=O)N[C@@H](CCC(N)=O)C(=O)N[C@@H](C)C(=O)N[C@@H](CCCNC(=N)N)C(=O)N[C@@H](CCC(N)=O)C(=O)O [iodine-125 labelled]; test system = H2-Ld-huIL-6 Tg Balb/c mice, AA amyloidosis, pancreas; setting = intravenous, 4 h, decay-corrected; endpoint = tissue uptake; value = 24.7 %ID/g
Compound = CN(CCC(=O)O)C(=O)c1ccc2c(c1)CC[C@@H]1[C@@H]2CC[C@]2(C)C(c3cncc(F)c3)=CC[C@@H]12; test system = premenopausal women with endometriosis pain, serum; setting = 60 mg twice daily, end of treatment, completers, mean; endpoint = total bilirubin; value = 0.964 mg/dL
Compound = C[C@@H](Oc1ccc(S(C)(=O)=O)cc1C(=O)N1C[C@@H]2C[C@]2(c2cc(C(F)(F)F)on2)C1)C(F)(F)F; test system = elderly humans, plasma; setting = oral, 25 mg once daily, single dose, geometric mean; endpoint = %AUC extrapolated; value = 36.2%
Compound = FC(F)(F)c1ccc(CNc2ccc(Cc3c[nH]c4ncc(Cl)cc34)cn2)cn1; test = measured: aspartate aminotransferase increased; test system = patients with advanced solid tumours; setting = oral, dose not given, grade 1 and 2, possibly related to drug; endpoint = adverse event incidence; value = 28%
Compound = Cc1cc(NC(=O)c2cccc(NC(=O)/C=C/CN(C)C)c2)ccc1Nc1nccc(-c2cccnc2)n1; test system = rat Wistar male, primary hepatocytes; setting = 1 µM; endpoint = intrinsic clearance, scaled; value = 11.7 mL/min/kg
Compound = CCOC(=O)N1C[C@@H](c2ccc(Cl)cc2)N[C@H](c2cc(Cl)cc(Cl)c2)C1; test = shake-flask, 1-octanol/buffer; setting = pH 7.4; endpoint = logD; value = > 4.7
Compound = O=C(Nc1nc2cccc(-c3ccc(CN4CCS(=O)(=O)CC4)cc3)n2n1)C1CC1; test = measured: epigastric discomfort; test system = human rheumatoid arthritis patients; setting = oral, 300 mg once daily, 4 weeks, regardless of relatedness; endpoint = treatment-emergent adverse events; value = 0%
Compound = C=CC(=O)NC1CCN(c2ncc3ncnc(Nc4ccc(Oc5ccc6c(c5)ncn6C)c(C)c4)c3n2)CC1; test system = healthy male volunteers; setting = intravenous then oral, dose not given, at least 1 treatment-emergent event; endpoint = subjects with adverse events; value = 29%
Compound = O=C(OC(C(F)(F)F)C(F)(F)F)N1CCN(Cc2cccc(Oc3ccccc3)c2)CC1; test = PET blocking study; test system = rhesus monkey, brain THA; setting = 0.1 mg/kg, compound pretreatment, together with: [18F]T-401 tracer; endpoint = Ktrans; value = 0.0008 min⁻¹
Compound = O=C1CCc2ccc(OCCCCN3CCN(c4cccc(Cl)c4Cl)CC3)cc2N1; test = measured: Sedation; test system = patients, CYP2D6 normal metabolizers; setting = dose not given, long-acting oral or depot; endpoint = adverse event incidence; value = 12%
Compound = CC(=O)N(C)[C@H]1CCN(C(=O)c2cnc3c(c2)C[C@](C)(c2ccc(F)cc2)N3)C1; test = measured: muscle damage; test system = human; setting = oral, 15 mg once daily; endpoint = adverse event duration; value = 10 days
Compound = CN1C(=O)[C@@H](NC(=O)c2nnc(Cc3ccccc3)[nH]2)COc2cccnc21; test = phase I multiple ascending dose; test system = human, male and female; setting = oral, 600 mg, 14 days; endpoint = participants with any TEAE; value = 75%
Compound = Cc1ccc(O)c(-n2nc3ccccc3n2)c1; test system = human, both sexes; setting = topical, dose not given, sunscreen, age 2-3 years, 95th percentile; endpoint = daily dermal uptake; value = 5160 ng/kg body weight/day
Compound = CCOc1c([C@H](C)n2nc(C)c3c(N)ncnc32)cc(Cl)c(F)c1[C@@H]1CNC(=O)C1; test = measured: QRS ≤100 ms; test system = previously treated B-cell malignancy; setting = oral, 20 mg once daily, baseline below thresholds; endpoint = ECG observations; value = 92.7%
Compound = C=CC(=O)N1CCC([C@@H]2CCNc3c(C(N)=O)c(-c4ccc(Oc5ccccc5)cc4)nn32)CC1; test system = rat plasma; setting = 2 ng/mL, three freeze-thaw cycles; how to read = baseline: nominal concentration; endpoint = stability relative error; value = -1.2%

For quick reference, copied from above:
Compound = O=C1CCc2ccc(OCCCCN3CCN(c4cccc(Cl)c4Cl)CC3)cc2N1; test = measured: Sedation; test system = patients, CYP2D6 normal metabolizers; setting = dose not given, long-acting oral or depot; endpoint = adverse event incidence; value = 12%
Compound = CC(=O)N(C)[C@H]1CCN(C(=O)c2cnc3c(c2)C[C@](C)(c2ccc(F)cc2)N3)C1; test = measured: muscle damage; test system = human; setting = oral, 15 mg once daily; endpoint = adverse event duration; value = 10 days
Compound = CN1C(=O)[C@@H](NC(=O)c2nnc(Cc3ccccc3)[nH]2)COc2cccnc21; test = phase I multiple ascending dose; test system = human, male and female; setting = oral, 600 mg, 14 days; endpoint = participants with any TEAE; value = 75%
Compound = Cc1ccc(O)c(-n2nc3ccccc3n2)c1; test system = human, both sexes; setting = topical, dose not given, sunscreen, age 2-3 years, 95th percentile; endpoint = daily dermal uptake; value = 5160 ng/kg body weight/day
Compound = CCOc1c([C@H](C)n2nc(C)c3c(N)ncnc32)cc(Cl)c(F)c1[C@@H]1CNC(=O)C1; test = measured: QRS ≤100 ms; test system = previously treated B-cell malignancy; setting = oral, 20 mg once daily, baseline below thresholds; endpoint = ECG observations; value = 92.7%
